Experimental data from different studies.
Lines come from different studies, so protocols differ. Numbers after ± are the reported error.
Target: Sodium-dependent serotonin transporter (Slc6a4, Rattus norvegicus, UniProt P31652)
Sequence of UniProt P31652 (whole entry, looked up): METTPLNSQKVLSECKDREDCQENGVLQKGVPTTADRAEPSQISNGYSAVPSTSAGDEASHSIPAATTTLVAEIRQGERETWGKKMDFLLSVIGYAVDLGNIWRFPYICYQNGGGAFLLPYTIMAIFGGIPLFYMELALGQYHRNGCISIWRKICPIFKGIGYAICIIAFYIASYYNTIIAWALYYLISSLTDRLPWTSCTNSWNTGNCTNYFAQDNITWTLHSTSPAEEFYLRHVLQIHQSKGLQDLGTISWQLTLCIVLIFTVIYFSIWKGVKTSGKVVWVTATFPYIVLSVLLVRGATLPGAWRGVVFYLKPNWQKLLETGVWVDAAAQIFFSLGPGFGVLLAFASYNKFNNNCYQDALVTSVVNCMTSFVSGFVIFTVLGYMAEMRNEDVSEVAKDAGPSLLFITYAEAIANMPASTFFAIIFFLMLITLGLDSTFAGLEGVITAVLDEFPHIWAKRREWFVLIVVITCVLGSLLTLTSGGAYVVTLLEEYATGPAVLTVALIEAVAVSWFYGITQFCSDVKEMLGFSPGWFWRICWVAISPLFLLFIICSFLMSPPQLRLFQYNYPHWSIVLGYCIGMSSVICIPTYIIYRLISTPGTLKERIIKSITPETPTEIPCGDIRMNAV

CNC(C)Cc1ccc2ccoc2c1 (stereo not drawn) — EC50 (transporter-mediated release, substrate; rat brain synaptosomes; 5 min, together with: [3H]5-HT): 33 ± 4 nM
CC(C)N(CCc1c[nH]c2ccccc12)C(C)C — IC50 (inhibitor): 288 ± 2.3 nM
COC(=O)[C@H]1[C@@H](c2ccc(SC)c(Br)c2)C[C@@H]2CC[C@H]1N2C — Ki: 0.6 ± 0.2 nM
COC(=O)[C@H]1[C@@H](c2ccc(Cl)c(Cl)c2)C[C@@H]2CC[C@H]1N2CCOCCOCCOCCOCCOCCNC(=O)c1ccc2c(c1)C1(OC2=O)c2ccc(N3CCC3)cc2[Si](C)(C)c2cc(N3CCC3)ccc21 — Ki (ligand displacement, radioligand; cell membranes): 43 nM
CNC(C)C(=O)c1ccccc1 (stereo not drawn) — EC50 (substrate release, releasing agent; rat brain synaptosomes; together with: [3H]5-HT): 2590 nM
CC(C)N(C)CCc1c[nH]c2ccccc12 — IC50 (inhibitor): > 10000 nM
CCC[C@H](C(=O)c1ccccc1)N1CCCC1 — IC50 (transporter uptake, inhibitor, radiometric): > 10000 nM
CCN(CC)c1ccc2c(-c3ccc(S(=O)(=O)NCCCCCC(=O)NCCN4C5CCC4[C@@H](C(=O)OC)[C@@H](c4ccc(Cl)c(Cl)c4)C5)cc3S(=O)(=O)[O-])c3ccc(=[N+](CC)CC)cc-3oc2c1 (stereo partly drawn) — Ki (ligand displacement, radioligand; cell membranes): 16 nM
CN1[C@H]2CC[C@@H]1[C@@H](C(=O)N1CCCC1)[C@@H](c1ccc(I)cc1)C2 — IC50 (serotonin reuptake, inhibitor; rat brain synaptosomes): 404 nM
CNC(C)C(=O)c1cccc(Cl)c1 (stereo not drawn) — EC50 (substrate release, releaser; rat brain synaptosomes; together with: [3H]5-HT): 211 nM
C[C@@H]1N=C(N)O[C@H]1c1ccc2c(c1)OCO2 (racemic) — EC50 (substrate release, releaser; rat brain synaptosomes; together with: [3H]5-HT 5 nM): 73.4 ± 12 nM
CCCN(CCC)CCc1c[nH]c2ccccc12 — IC50 (inhibitor): 157 ± 16 nM
Cc1ccc([C@H]2OC(N)=N[C@H]2C)cc1 (relative stereo) — EC50 (substrate release, releaser; rat brain synaptosomes; together with: [3H]5-HT 5 nM): 17.7 ± 2.3 nM
CCCN(CCC)CCc1c[nH]c2ccc(OC)cc12 — IC50 (inhibitor): 1030 ± 140 nM
CCCC(NC)C(=O)c1ccc2c(c1)OCO2 (stereo not drawn) — IC50 (transporter uptake, inhibitor, radiometric): 1200 nM
COC(=O)[C@H]1[C@@H](c2ccc(SC)cc2)C[C@@H]2CC[C@H]1N2C — Ki: 0.7 ± 0.2 nM
Cc1ccc([C@H]2OC(N)=N[C@H]2C)cc1 (racemic) — EC50 (substrate release, releaser, [3H]5-HT release; rat brain synaptosomes; together with: [3H]5-HT 5 nM): 18.5 ± 2.8 nM
Fc1ccc(-c2csc(N3CCNCC3)n2)cc1 — Ki ([3H]5-HT uptake, inhibitor; 30 min preincubation): 190 ± 40 nM
